Published values of several laboratories.
Protocols differ between the studies behind these lines. ± marks the error that the study gave.
Cell line: HeLa

SMILES | assay | setting | IC50
COc1ccc(CNC[C@@](O)(COCc2ccc(F)cc2)[C@@H]2CC[C@@H](C)C[C@H]2OCc2ccc(F)cc2)cc1 | cell growth or viability, MTT | 72 h | 1.6 µM
COc1cccc2c(NCc3ccccc3)nc(Nc3cccc(F)c3)nc12 | ODD-Luc degradation | p97-independent substrate | 22 ± 4 µM
C[C@]12CC/C(=N\O)C=C1CCC1C2CC[C@]2(C)/C(=C/c3ccccn3)CCC12 (stereo partly shown) | cell growth or viability, MTT | 72 h | > 100 µM
CO[C@@H]1[C@@H](O[C@@H]2O[C@H](C)[C@@H](O[C@H]3C[C@@](C)(O)[C@@H](OC(=O)CN4CCOCC4)[C@H](C)O3)[C@H](N(C)C)[C@H]2O)[C@@H](CC=O)C[C@@H](C)[C@@H](O[C@H]2CC[C@H](N(C)C)[C@@H](C)O2)/C=C/C=C/C[C@@H](C)OC(=O)C[C@H]1O | cell growth or viability, CCK-8 | 72 h | 9.71 µM
O=C(CCCc1ccc2c(c1)CCCC2)N[C@@H]1O[C@H](CO)[C@@H](O)[C@H](O)[C@H]1O | cell growth or viability | 96 h | > 250 µM
CCCCC[P+](c1ccccc1)(c1ccccc1)c1ccccc1 | cell growth or viability, resazurin | 72 h | 1.64 µM
Nc1nc2c(ncn2CC(=O)N[C@@H](Cc2ccccc2)C(=O)N[C@@H](Cc2ccccc2)C(=O)O)c(=O)[nH]1 | – | – | > 500 µM
COc1ccc2c(c1)OCc1c-2oc2cc3c(cc12)OCO3 | cell growth or viability, MTT | 72 h | 30.2 µM
NC(=O)c1ccc(-c2ccccc2F)c2c3c([nH]c12)CCCC3 | cell growth or viability | – | > 10 µM
CC(C)OC(=O)[C@]12CS[C@H](c3ccccc3)N1C(=O)/C(=C(\O)CCc1ccccc1)C2=O | cell growth or viability, resazurin | – | 15.6 µg/mL
O=c1[nH]c(=O)n([C@@H]2O[C@H](CSSC[C@H]3O[C@@H](n4cc(F)c(=O)[nH]c4=O)[C@H](O)[C@@H](F)[C@@H]3O)[C@@H](O)[C@H](F)[C@H]2O)cc1F | cell growth or viability | – | 280 µM
OC(c1ccccc1)c1cnnn1Cc1ccc(-c2ccc(OCCN3CCOCC3)cc2)cn1 (stereo not shown) | cell growth or viability, CCK-8 | 48 h | > 4 µM
CC(C)(C)c1cc2c(O)c(c1)Cc1cc(C(C)(C)C)cc(c1OCC(=O)NCc1cccnc1)Cc1cc(C(C)(C)C)cc(c1O)Cc1cc(C(C)(C)C)cc(c1OCC(=O)NCc1cccnc1)COC2 | cell growth or viability, MTT | 72 h | 7.9 µM
O=C(Cn1ccc(-c2ccc(OCCN3CCOCC3)cc2)cc1=O)NCc1ccccc1 | cell growth or viability, CCK-8 | 48 h | 0.24 µM
S=c1n(-c2ccccc2)c2c3ccccc3nc3[n+]2[n]1[Ir-3]12([S]3)([c]3cccc4ccc5ccc[n+]1c5c34)[c]1cccc3ccc4ccc[n+]2c4c13 | cell viability, MTT | dark | > 50 µM
CC[C@H](C)[C@H](NC(=O)[C@H]([C@@H](C)CC)N(C)C(C)=O)C(=O)N[C@H](C(=O)N[C@@H](CC(C)C)C(=O)[C@@]1(C)CO1)[C@@H](C)O | cell growth or viability, resazurin | 48 h | 0.004 µM
C[S+](C)([O-])[Pt-2]([Cl])([Cl])[N+](=Cc1ccc[nH]1)Cc1ccccc1 | cell growth or viability, MTT | 24 h | 84.9 µg/mL
CC1=CC(C(F)(F)F)=[O+][Pt-2]([NH3+])([NH3+])[O]1.CC1=CC(C(F)(F)F)=[O+][Pt-2]([NH3+])([NH3+])[O]1.O=S(=O)([O-])[O-] (stereo not shown) | cell growth or viability, MTT | – | 2.9 µM
COc1cc(OC)c(C(C)=O)c(OC)c1 | cell growth or viability, MTT | 48 h | 26.3 µM
C[C@]12CC/C(=N\OCCN3CCCCC3)C=C1CCC1C2CC[C@]2(C)/C(=C/c3ccccn3)CCC12 (stereo partly shown) | cell growth or viability, MTT | 72 h | 32.2 µM
O=C(Cc1ccc(-c2ccc(OCCN3CCOCC3)cc2)cn1)NCc1cccc(F)c1 | cell growth or viability, CCK-8 | 48 h | 0.53 µM
C[C@@H]1CC[C@@H]([C@](O)(CNCc2cccc(F)c2)COCc2ccccc2)[C@H](OCc2ccccc2)C1 | cell growth or viability, MTT | 72 h | 2.8 µM
CNC(=O)c1c(C)oc2cc(Oc3ncnc4cc(OC)c(OCCCCCCC(=O)NO)cc34)ccc12 | cell growth or viability, CCK-8 | 48 h | 1.49 µM
CC(=O)NCCCN(C)CCCNc1cccc2c1C(=O)c1cccc(NCCCN(C)CCCNC(C)=O)c1C2=O | cell growth or viability, CCK-8 | 48 h | 1.4 µM
N#Cc1c(-c2ccc(Cl)cc2)cc(-c2cccc3ccccc23)n2c(Cc3ccccc3)nnc12 | cell growth or viability, MTT | 72 h | 1.04 µM
C=C1C(=O)O[C@@H]2/C=C(\C)CC/C=C(/C(=O)OC)C[C@@H](OC(=O)/C(C)=C\C)[C@@H]12 | cell growth or viability | 48 h | 9.92 µM

SMILES | assay | setting | IC50
CCc1ccc([C@H](C)CC(=O)NC(=O)N[C@@H]2O[C@H](COC(C)=O)[C@@H](OC(C)=O)[C@H](OC(C)=O)[C@H]2OC(C)=O)cc1 | cell growth or viability | 96 h | 88 µM
CC(C)(C(=O)O)C1(O)CCCCC1 | cell growth or viability | 72 h | 128 µM
COC(=O)[C@@H](NC(=O)[C@@H](NC(=O)OC(C)(C)C)C(C)C)C(C)C | cell growth or viability, SRB | – | 7 µM
COC(=O)CNc1cc(C[S+]([O-])c2ccc3ccccc3c2)ccc1OC (stereo not shown) | cell growth or viability, MTS | 48 h | 0.974 µM
Clc1ccc(C=[N+]2N=C(Nc3ccccc3)[S][Pd-]2([Cl])[Cl])s1 | cell growth or viability | – | 180 µM
CCc1ccc([C@H](C)CC(=O)NC(=O)N[C@@H]2O[C@H](CO)[C@@H](O)[C@H](O)[C@H]2O)cc1 | cell growth or viability | 96 h | > 250 µM
COc1ccc(NC(=O)O[C@H]2[C@H](C)O[C@@H](O[C@H]3[C@H](N(C)C)[C@@H](O)[C@H](O[C@H]4[C@@H](CC=O)C[C@@H](C)[C@@H](O[C@H]5CC[C@H](N(C)C)[C@@H](C)O5)/C=C/C=C/C[C@@H](C)OC(=O)C[C@@H](O)[C@@H]4OC)O[C@@H]3C)C[C@@]2(C)O)cc1 | cell growth or viability, CCK-8 | 72 h | > 50 µM
F[P-](F)(F)(F)(F)F.O=C(CCC(=O)[c-]1cccc1)NCCN(CC(=O)Nc1ccc(C#CCN(Cc2ccccn2)Cc2ccccn2)cc1)C(=O)CCc1cn(Cc2ccccc2)nn1.[C-]#[O+].[C-]#[O+].[C-]#[O+].[C-]#[O+].[C-]#[O+].[C-]#[O+].[Mn+].[Re+] | cell viability, resazurin | 48 h | 10.7 ± 1.3 µg/mL
CCc1ccc([C@H](C)CC(=O)N[C@@H]2O[C@H](COC(C)=O)[C@@H](OC(C)=O)[C@H](OC(C)=O)[C@H]2OC(C)=O)cc1 | cell growth or viability | 96 h | ≥ 250 µM
O=C(Cc1ccc(-c2ccc(OCCN3CCOCC3)cc2)cn1)NCC1CCCCC1 | cell growth or viability, CCK-8 | 48 h | > 4 µM
CCCCCCCC[P+](c1ccc(C)cc1)(c1ccc(C)cc1)c1ccc(C)cc1 | cell growth or viability, resazurin | 72 h | 0.3 µM
[Cl][Pt-]1([Cl])[S]C(Nc2ccccc2)=N[N+]1=Cc1ccc(-c2ccccc2)s1 | cell growth or viability | – | 105 µM
CCCCCCCCCCCCOc1c(O)cc(C(=O)O[C@@H]2Cc3c(O)cc(O)cc3O[C@@H]2c2cc(O)c(O)c(O)c2)cc1O | cell growth or viability, CCK-8 | 24 h | 81.3 µM
CO[C@@H]1[C@@H](O[C@@H]2O[C@H](C)[C@@H](O[C@H]3C[C@@](C)(O)[C@@H](OC(=O)CN(C)C)[C@H](C)O3)[C@H](N(C)C)[C@H]2O)[C@@H](CC=O)C[C@@H](C)[C@@H](O[C@H]2CC[C@H](N(C)C)[C@@H](C)O2)/C=C/C=C/C[C@@H](C)OC(=O)C[C@H]1O | cell growth or viability, CCK-8 | 72 h | > 50 µM
COc1ccc(CNC[C@](O)(COCc2ccccc2)[C@@H]2CC[C@@H](C)C[C@H]2OCc2ccccc2)cc1 | cell growth or viability, MTT | 72 h | 2.4 µM
CN[C@H](CC(C)C)C(=O)N[C@H]1C(=O)N[C@@H](CC(N)=O)C(=O)N[C@H]2C(=O)N[C@H]3C(=O)N[C@H](C(=O)N[C@H](C(=O)O)c4cc(O)cc(O)c4-c4cc3ccc4O)[C@H](O)c3ccc(c(Cl)c3)Oc3cc2cc(c3O[C@@H]2O[C@H](CO)[C@@H](O)[C@H](O)[C@H]2O[C@H]2C[C@](C)(N)[C@H](O)[C@H](C)O2)Oc2ccc(cc2Cl)[C@H]1O | cell growth or viability, MTT | 48 h | > 500 µM
Cc1cc(C#N)cc(C)c1Oc1cc(Nc2ccc(C#N)cc2)nc2ccncc12 | – | 48 h | > 128 µM
COc1cc(CN2CCN(c3ccc(OC(F)(F)F)cc3)CC2)c2cc3[n+](cc2c1O)CCc1cc2c(cc1-3)OCO2 | cell growth or viability, SRB | 48 h | 5.64 µg/mL
COc1ccc(-c2noc(NC(=O)c3ccc(F)c(C(F)(F)F)c3)c2C#N)c(OC)c1 | cell growth or viability, MTT | 72 h | 2.06 µM
CC(C(=O)NCc1ccccc1)c1ccc(-c2ccc(OCCN3CCOCC3)cc2)cn1 (stereo not shown) | cell growth or viability, CCK-8 | 48 h | 0.95 µM
S=c1n(-c2ccccc2)c2c3ccccc3nc3[n+]2[n]1[Ir-3]12([S]3)([c]3ccccc3-c3sc4ccccc4[n+]31)[c]1ccccc1-c1sc3ccccc3[n+]12 | cell viability, MTT | irradiation 450 nm, 15.5 mW/cm^2, 15 min | 0.006 ± 0.001 µM
COc1ccc(-c2nnc(-c3ccccn3)[nH]2)cc1OC | cell growth or viability, MTT | 24 h | > 100 µM
COc1cc(CN2CCN(c3ccc(Cl)cc3)CC2)c2cc3[n+](cc2c1O)CCc1cc2c(cc1-3)OCO2 | cell growth or viability, SRB | 48 h | 4.24 µg/mL
CCC1=C(CC)C2=[N+]3C1=Cc1c(CC)c(CC)c4[n]1[Ir-3]31([C]#[N+]c3ccc(OC)cc3)([C]#[N+]c3ccc(OC)cc3)[n]3c(c(CC)c(CC)c3=CC3=[N+]1C(=C4)C(CC)=C3CC)=C2.F[B-](F)(F)F | cell growth or viability, MTT | 72 h | 7.9 µM
COc1ccc(COC[C@](O)(CNCc2ccccc2)[C@@H]2CC[C@@H](C)C[C@H]2OCc2ccc(OC)cc2)cc1 | cell growth or viability, MTT | 72 h | 3.1 µM
Cc1cc(C#N)cc(C)c1Oc1cc(Nc2ccc(C#N)cn2)nc2cnccc12 | – | 48 h | > 127 µM

A few entries again:
SMILES | assay | setting | IC50
COc1cc(CN2CCN(c3ccc(Cl)cc3)CC2)c2cc3[n+](cc2c1O)CCc1cc2c(cc1-3)OCO2 | cell growth or viability, SRB | 48 h | 4.24 µg/mL
CCC1=C(CC)C2=[N+]3C1=Cc1c(CC)c(CC)c4[n]1[Ir-3]31([C]#[N+]c3ccc(OC)cc3)([C]#[N+]c3ccc(OC)cc3)[n]3c(c(CC)c(CC)c3=CC3=[N+]1C(=C4)C(CC)=C3CC)=C2.F[B-](F)(F)F | cell growth or viability, MTT | 72 h | 7.9 µM
COc1ccc(COC[C@](O)(CNCc2ccccc2)[C@@H]2CC[C@@H](C)C[C@H]2OCc2ccc(OC)cc2)cc1 | cell growth or viability, MTT | 72 h | 3.1 µM
Cc1cc(C#N)cc(C)c1Oc1cc(Nc2ccc(C#N)cn2)nc2cnccc12 | – | 48 h | > 127 µM
